# Experimental data pooled from the literature.
# Every numbered part comes from another study and shows a few of its results, in no order. Positions count from the first letter of the parent shown.

# Set 1
# Target: ABI1, truncated, D143A, DHFR fusion (Arabidopsis thaliana)
# Method: DHFR PCA, deep sequencing
# Matrix: yeast
# Setting: methotrexate growth selection, single substitutions
# With: (+)-ABA 710 µM
# Reference: wild-type fitted maximum
# Direction: higher = stronger binding
# Starting sequence: PYL1, truncated, DHFR fusion (Arabidopsis thaliana); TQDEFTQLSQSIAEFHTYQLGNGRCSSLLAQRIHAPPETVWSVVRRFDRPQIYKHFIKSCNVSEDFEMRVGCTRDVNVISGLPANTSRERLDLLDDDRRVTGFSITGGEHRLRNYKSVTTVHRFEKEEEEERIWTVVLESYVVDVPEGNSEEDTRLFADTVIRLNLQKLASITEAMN
Substitution,relative binding score
Q51L,74%
T119E,4.39%
E38P,87.9%
L138G,2.95%
I133W,102%
I79D,79.7%
V62S,86.7%
I172D,44.1%
L138E,6.5%

# Set 2
# Target: CEBPE, bZIP domain (human)
# Method: DHFR protein complementation
# Matrix: yeast
# Setting: single substitutions, most at no-binding floor
# Reference: wild-type JUN-FOS pair
# Direction: higher = stronger binding
# Starting sequence: JUN, bZIP domain (human); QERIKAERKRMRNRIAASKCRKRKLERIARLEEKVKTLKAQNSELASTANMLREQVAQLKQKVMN; partner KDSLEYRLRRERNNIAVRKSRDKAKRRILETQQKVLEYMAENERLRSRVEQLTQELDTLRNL
Substitution,binding fitness
K39P,-1.51 natural log
E54R,-1.28 natural log
E32Q,-1.32 natural log
A46N,-1.08 natural log
T48N,-1.42 natural log
L38E,-1.51 natural log
K36Q,-1.24 natural log
V56E,-1.48 natural log
I28Q,-1.16 natural log
N42I,-1.42 natural log
A46I,-1.1 natural log
K39V,-1.24 natural log
A29R,-1.11 natural log

# Set 3
# Molecule: PhoQ, residues 284 288 289 292 302 303 TVTVVA
# Method: Sort-seq
# Refers to: YFP reporter
# Matrix: E. coli
# Setting: PhoQ-PhoP variant library
# With: 10 µM Mg2+
# Reference: high Mg2+ state
# Direction: higher = stronger signaling
target,fold induction
"PhoP, residues 12 14 15 18 19 AYFRS (Escherichia coli, UniProt P23836)",12.9
"PhoP, residues 12 14 15 18 19 SFCSL (Escherichia coli, UniProt P23836)",17.4
"PhoP, residues 12 14 15 18 19 HHYTI (Escherichia coli, UniProt P23836)",2.4

# Set 4
# Target: CCND2, cyclin fold, Cln2 fusion (human)
# Method: yeast growth competition, sequencing
# Matrix: yeast
# Setting: weak parent motif
# Reference: not given
# Direction: higher = stronger binding
# Starting sequence: CDKN1A docking peptide (human); SKACRRLFGPVDS; partner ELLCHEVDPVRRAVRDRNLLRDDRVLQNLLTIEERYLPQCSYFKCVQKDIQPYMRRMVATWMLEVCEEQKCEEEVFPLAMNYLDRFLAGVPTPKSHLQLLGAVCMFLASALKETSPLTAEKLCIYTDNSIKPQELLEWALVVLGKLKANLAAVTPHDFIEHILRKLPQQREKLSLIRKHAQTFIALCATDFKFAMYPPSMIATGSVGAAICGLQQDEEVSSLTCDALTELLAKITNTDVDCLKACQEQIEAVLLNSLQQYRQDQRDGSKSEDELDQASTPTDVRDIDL
Substitution,normalised enrichment score
A3I,0.0966
K2V,0.559
F8D,0.346
A3L,0.0108
G9D,0.302
C4I,0.535
R5V,0.14
L7F,-0.103
K2H,0.256
L7T,0.293
F8R,0.0556
R6A,0.0963
R6L,0.267
L7C,-0.0364

# Excerpt of the above (set 4):
Substitution,normalised enrichment score
K2H,0.256
L7T,0.293
F8R,0.0556
R6A,0.0963
R6L,0.267
